Measured values of several laboratories.
Lines come from different studies, so protocols differ. Values joined by “and” are separate records of one study, mostly repeats; a detail may differ. ± gives the spread as reported.
Cell line: MDCK

OCC1=C(F)[C@@H](n2nnc3c(NO)ncnc32)[C@H](O)[C@@H]1O — CC50 (MTT; 3 (unit not given)): > 100 µM
CCCCc1nc(N)[nH]c(=O)c1Br — minimum cytotoxic concentration (cell morphology alteration): > 100 µM
O=c1[nH]cc(F)c(=O)[nH]1 — viability (CCK-8; 100 µM, 24 h): 92.3 ± 5.38%
Cc1cc(C)c(/C=C/c2nc(N)[nH]c(=O)c2Br)c(C)c1 — minimum cytotoxic concentration (cell morphology alteration): > 20 µM
Nc1nc(N)c2nnn([C@@H]3C(F)=C(CO)[C@@H](O)[C@H]3O)c2n1 — CC50 (MTT; 3 (unit not given)): > 100 µM
Nc1nc(CCc2ccccc2)c(Br)c(=O)[nH]1 — minimum cytotoxic concentration (cell morphology alteration): > 100 µM
CNc1ncnc2c1nnn2[C@@H]1C(F)=C(CO)[C@@H](O)[C@H]1O — CC50 (MTT; 3 (unit not given)): > 100 µM
CC(C)C(=O)OC[C@H]1O[C@@H](n2ccc(NO)nc2=O)[C@H](O)[C@@H]1O — viability (CCK-8; 100 µM, 24 h): 93.32 ± 0.81%
Cn1cc(-c2cccc(N3CCn4c(cc5c4CC(C)(C)C5)C3=O)c2CO)cc(Nc2ccncn2)c1=O — apparent permeability B-A (10 µM, 3 h): 17.9 ×10⁻⁶ cm/s
CCCc1nc(N)[nH]c(=O)c1Br — minimum cytotoxic concentration (cell morphology alteration): > 100 µM
Nc1ncn([C@@H]2O[C@H](CO)[C@@H](O)[C@H]2O)c(=O)n1 — viability (CCK-8; 100 µM, 24 h): 68.77 ± 0.01%
Cn1cc(-c2cc(F)cc(N3CCn4c(cc5c4CCCC5)C3=O)c2CO)cc(Nc2ccc(N3CCN(C4COC4)CC3)cn2)c1=O — apparent permeability B-A (10 µM, 3 h): 14.3 ×10⁻⁶ cm/s
NC(=O)c1ncn([C@@H]2O[C@H](CO)[C@@H](O)[C@H]2O)n1 — viability (CCK-8; 100 µM, 24 h): 87.5 ± 1.56%
Cn1cc(-c2cccc(N3CCc4c(cc5n4CCCC5)C3=O)c2CO)cc(Nc2ccncn2)c1=O — apparent permeability B-A (10 µM, 3 h): 13.7 ×10⁻⁶ cm/s
CCCCCc1nc(N)[nH]c(=O)c1Br — minimum cytotoxic concentration (cell morphology alteration): > 100 µM
Cc1ncc(OC[C@@]2(c3cccc(F)c3)C[C@H]2C(=O)Nc2ccc(F)cn2)c(C)n1 — Papp (permeability basolateral to apical; 1 µM, 90 min, pH 6.5 apical to 7.4 basolateral): 43.2 ×10⁻⁶ cm/s and 53.4 ×10⁻⁶ cm/s
Nc1ncnc2c1nnn2[C@@H]1C(F)=C(CO)[C@@H](O)[C@H]1O — CC50 (MTT; 3 (unit not given)): > 100 µM
CC(N)C12CC3CC(CC(C3)C1)C2 (stereo not drawn) — minimum cytotoxic concentration (cell morphology alteration): > 200 µM

For quick reference, copied from above:
Nc1nc(N)c2nnn([C@@H]3C(F)=C(CO)[C@@H](O)[C@H]3O)c2n1 — CC50 (MTT; 3 (unit not given)): > 100 µM
Nc1ncnc2c1nnn2[C@@H]1C(F)=C(CO)[C@@H](O)[C@H]1O — CC50 (MTT; 3 (unit not given)): > 100 µM
